Results from different studies.
Each numbered part is a random draw from the data of one study; scales do not carry over between parts. Positions count from the first letter of the parent shown.

Block 1
Target: TAR DNA-binding protein 43, full length, His tag (TARDBP, Homo sapiens, UniProt Q13148, residues 1-414)
Technique: RNA Bind-n-Seq
Form: RNA
Matrix: in vitro
Tested at: 20 nM
Setting: 6-mer, flanks averaged, single round
Added: 150 mM KCl
Reference: input library
Direction: higher = stronger binding
Sequence | 6-mer enrichment (R)
GUUCUA | 0.579
CACCGA | 0.693
GACAUC | 0.698
GGAUUA | 0.827
GACGUG | 1.5
CUGGAC | 0.834
CACAGC | 0.711
UACCGC | 0.646
GCCACC | 0.741

Block 2
Target: Ras GTPase-activating protein-binding protein 1, C-terminal RGG region (G3BP1, Homo sapiens, UniProt Q13283)
Chain of UniProt Q13283 (whole entry, looked up): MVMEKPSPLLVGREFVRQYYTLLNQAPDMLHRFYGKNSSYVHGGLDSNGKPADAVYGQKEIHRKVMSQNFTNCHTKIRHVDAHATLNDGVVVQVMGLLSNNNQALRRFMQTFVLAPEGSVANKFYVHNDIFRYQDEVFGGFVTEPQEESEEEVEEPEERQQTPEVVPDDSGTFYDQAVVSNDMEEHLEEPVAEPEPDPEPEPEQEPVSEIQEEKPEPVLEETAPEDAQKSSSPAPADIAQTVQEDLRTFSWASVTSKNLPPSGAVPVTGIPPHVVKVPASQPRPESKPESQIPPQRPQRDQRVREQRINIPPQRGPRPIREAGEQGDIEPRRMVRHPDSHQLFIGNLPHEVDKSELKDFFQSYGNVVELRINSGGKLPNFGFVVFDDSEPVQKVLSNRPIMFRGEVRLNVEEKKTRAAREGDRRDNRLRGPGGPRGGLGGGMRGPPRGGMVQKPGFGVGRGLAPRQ
Technique: RNA Bind-n-Seq
Form: RNA
Matrix: in vitro
Tested at: 1 µM
Setting: whole 134-nt RNA, ends assumed
Added: 150 mM KCl
Reference: input library
Direction: higher = stronger binding
Shared flanks, not repeated: GGGAGUUCUACAGUCCGACGAUC … UGGAAUUCUCGGGUGUCAAGG
Sequence | log2 enrichment
AAGUCCUGUGCUACACAUCGUAUGUACCGAAUCGGGUUUUGGGUUUUGGGGUUUUGGAAAGUAUUAUGUUACGCCGUUCGGAUCUGCACU | -0.94
UGGGAGGUGGAUUUUGUUUAUUUUUUUAGCUCAUUACCAGGGGUGGGAAUUUUUUUUUAAUAUGUGUCAUGAAUAAAGUUGUUUUUGAAA | 3.6
GUCCUGUGCUACACAUCGUAUGUACCGAAUCAAAUUUAAAUUUUUUUAAAUUUUUAAAAAAGUAUUAUGUUACGCCGUUCGGAUCUGCAC | -2.61
GCAGGAAGUAAAAACAAAUGGAAAUGCUUCGGAUAGUGGCAGGGGUGGGGGUUGAUAAGGAAAGGGUGGGAUGGGAGUGGGUAAAGAGUU | 1.06
CUCAAGUCCUGUGCUACACAUCGUAUGUACCGAAUCGGUGGUUUUUUUGGAGGAAAGUAUUAUGUUACGCCGUUCGGAUCUGCACUUCCA | -0.826
AGUCCUGUGCUACACAUCGUAUGUACCGAAUCGGGGUUUUUGGGGAGGGGUUUGGGGAAAGUAUUAUGUUACGCCGUUCGGAUCUGCACU | 1.81
UGGAUCUUGGAGGGACCAACUUCCGUGUGCUUUGGGUGAAAGUAACGGACAAUGGGCUCCAGAAGGUGGAGAUGGAGAAUCAGAUCUAUG | -1.62
UAUAUUGAGGUAUAGAGCUAUUCUUUGUAGGUACCCUGGUGAGACCGAUACAAAUAUGCCCCUCCCCAUAAUGGAAUACUAAUUUUUAUU | -1.13
CACAGACAACACGCACCCACAGAGACACAGAGGGAAGGGGUUGGGAUGGGGACAGGGUGCACAGCAGGGCGGGGUAGGACCCCAGCCCCU | -0.151
UCAAGUCCUGUGCUACACAUCGUAUGUACCGAAUCGGGGUUUGGUUUGGUUUGGGAAAGUAUUAUGUUACGCCGUUCGGAUCUGCACUUC | -1.01

Block 3
Target: CCNA1, cyclin fold, Cln2 fusion (human)
Technique: yeast growth competition, sequencing
Matrix: yeast
Setting: weak parent motif
Reference: not given
Direction: higher = stronger binding
Starting sequence: CABLES2 docking peptide (human); ICAKRSLCAAFSV
Variant | normalised enrichment score
S6A | 0.165
V13A | 0.119
R5A | -0.055
C2A | -0.175
K4A | 0.205

Other studies, line by line
Substance | target | test | test system | setting | how to read | quantity | value
PhoQ, residues 284 288 289 292 302 303 AGGCYF | PhoP, residues 12 14 15 18 19 NHTVL (Escherichia coli, UniProt P23836) | Sort-seq, measured: YFP reporter | E. coli | PhoQ-PhoP variant library, added: 10 µM Mg2+ | reference: high Mg2+ state, higher = stronger signaling | fold induction | 1.96
